Published values gathered from unrelated publications.
Compare with care: the assays were run in different laboratories. Numbers after ± are the reported error.
T1: CAP1/CAP2 heterodimer (Saccharomyces cerevisiae); chain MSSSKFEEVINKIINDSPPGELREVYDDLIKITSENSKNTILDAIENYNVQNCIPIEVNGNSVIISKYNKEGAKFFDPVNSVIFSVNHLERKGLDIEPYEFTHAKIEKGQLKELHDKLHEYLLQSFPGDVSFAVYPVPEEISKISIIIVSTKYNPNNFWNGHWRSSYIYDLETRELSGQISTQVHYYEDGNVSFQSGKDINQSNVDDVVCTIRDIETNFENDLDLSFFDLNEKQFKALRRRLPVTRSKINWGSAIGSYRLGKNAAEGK; chain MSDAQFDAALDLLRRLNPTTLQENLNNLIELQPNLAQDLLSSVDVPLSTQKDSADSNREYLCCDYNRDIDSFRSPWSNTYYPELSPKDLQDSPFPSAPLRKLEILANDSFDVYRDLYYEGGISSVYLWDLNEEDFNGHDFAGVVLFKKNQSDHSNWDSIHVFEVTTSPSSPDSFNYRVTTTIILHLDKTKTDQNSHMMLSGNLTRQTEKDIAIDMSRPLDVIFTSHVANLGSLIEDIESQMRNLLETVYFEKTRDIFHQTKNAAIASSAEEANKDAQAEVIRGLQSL
B1: Cacna1c 1647-1777 (Mus musculus, UniProt Q01815); sequence looked up; chain NALSLQAGLRTLHDIGPEIRRAISGDLTAEEELDKAMKEAVSAASEDDIFRRAGGLFGNHVTYYQSDSRGNFPQTFATQRPLHINKTGNNQADTESPSHEKLVDSTFTPSSYSSTGSNANINNANNTALGR
B2: HCK 78-138 (Homo sapiens, UniProt P08631); chain SEDIIVVALYDYEAIHHEDLSFQKGDQMVVLEESGEWWKARSLATRKEGYIPSNYVARVDS
B3: RAP1A (Homo sapiens, UniProt P62834); sequence looked up; chain MREYKLVVLGSGGVGKSALTVQFVQGIFVEKYDPTIEDSYRKQVEVDCQQCMLEILDTAGTEQFTAMRDLYMKNGQGFALVYSITAQSTFNDLQDLREQILRVKDTEDVPMILVGNKCDLEDERVVGKEQGQNLARQWCNCAFLESSAKSKINVNEIFYDLVRQINRKTPVEKKKPKKKSCLLL
B4: BIK (Homo sapiens, UniProt Q13323); chain MSEVRPLSRDILMETLLYEQLLEPPTMEVLGMTDSEEDLDPMEDFDSLECMEGSDALALRLACIGDEMDVSLRAPRLAQLSEVAMHSLGLAFIYDQTEDIRDVLRSFMDGFTTLKENIMRFWRSPNPGSWVSCEQVLLALLLLLALLLPLLSGGLHLLLK
UniProt Q8TCU6, sequence (whole entry, looked up): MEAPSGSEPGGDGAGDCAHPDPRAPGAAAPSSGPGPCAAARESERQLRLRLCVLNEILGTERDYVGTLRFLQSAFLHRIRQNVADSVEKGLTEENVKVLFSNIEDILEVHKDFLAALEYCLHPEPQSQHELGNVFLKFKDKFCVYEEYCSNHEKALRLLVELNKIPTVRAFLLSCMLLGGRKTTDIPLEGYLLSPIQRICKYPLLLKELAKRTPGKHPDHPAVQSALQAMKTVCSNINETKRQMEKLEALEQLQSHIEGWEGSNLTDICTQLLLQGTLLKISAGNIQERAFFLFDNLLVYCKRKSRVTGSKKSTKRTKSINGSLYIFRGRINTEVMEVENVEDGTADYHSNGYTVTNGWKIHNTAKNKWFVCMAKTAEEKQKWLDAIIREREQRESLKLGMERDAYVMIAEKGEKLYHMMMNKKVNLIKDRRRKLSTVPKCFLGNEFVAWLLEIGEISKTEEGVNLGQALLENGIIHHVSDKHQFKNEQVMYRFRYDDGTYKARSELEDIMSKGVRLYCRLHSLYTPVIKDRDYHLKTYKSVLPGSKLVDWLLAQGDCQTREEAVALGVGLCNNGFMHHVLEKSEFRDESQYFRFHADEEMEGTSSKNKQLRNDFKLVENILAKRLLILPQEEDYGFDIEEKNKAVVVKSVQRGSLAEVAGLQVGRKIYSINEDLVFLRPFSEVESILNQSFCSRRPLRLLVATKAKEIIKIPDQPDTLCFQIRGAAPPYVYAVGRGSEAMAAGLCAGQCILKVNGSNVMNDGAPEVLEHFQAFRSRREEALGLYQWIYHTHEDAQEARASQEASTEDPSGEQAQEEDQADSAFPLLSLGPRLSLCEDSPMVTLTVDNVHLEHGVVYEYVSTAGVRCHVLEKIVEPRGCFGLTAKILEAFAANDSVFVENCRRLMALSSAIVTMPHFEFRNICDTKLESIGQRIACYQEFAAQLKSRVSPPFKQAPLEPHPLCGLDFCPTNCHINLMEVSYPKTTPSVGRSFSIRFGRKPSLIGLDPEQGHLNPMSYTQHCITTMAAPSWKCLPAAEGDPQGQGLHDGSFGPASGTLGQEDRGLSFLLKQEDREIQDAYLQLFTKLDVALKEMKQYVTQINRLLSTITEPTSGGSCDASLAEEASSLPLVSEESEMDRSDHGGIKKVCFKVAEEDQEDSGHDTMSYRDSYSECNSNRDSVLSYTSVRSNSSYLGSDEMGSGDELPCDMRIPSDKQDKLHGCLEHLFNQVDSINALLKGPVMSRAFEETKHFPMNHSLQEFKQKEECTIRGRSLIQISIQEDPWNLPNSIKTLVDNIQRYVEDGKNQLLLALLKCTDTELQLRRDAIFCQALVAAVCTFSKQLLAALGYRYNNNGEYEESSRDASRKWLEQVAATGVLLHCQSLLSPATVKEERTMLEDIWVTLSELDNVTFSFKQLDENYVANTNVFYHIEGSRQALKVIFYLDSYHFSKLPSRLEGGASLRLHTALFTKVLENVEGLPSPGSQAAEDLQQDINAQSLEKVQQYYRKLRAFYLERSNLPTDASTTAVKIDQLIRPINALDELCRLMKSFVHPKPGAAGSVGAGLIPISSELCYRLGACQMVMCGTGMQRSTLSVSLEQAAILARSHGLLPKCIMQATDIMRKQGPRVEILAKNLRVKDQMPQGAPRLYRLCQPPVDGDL
UniProt P27986, sequence (whole entry, unmodified, looked up): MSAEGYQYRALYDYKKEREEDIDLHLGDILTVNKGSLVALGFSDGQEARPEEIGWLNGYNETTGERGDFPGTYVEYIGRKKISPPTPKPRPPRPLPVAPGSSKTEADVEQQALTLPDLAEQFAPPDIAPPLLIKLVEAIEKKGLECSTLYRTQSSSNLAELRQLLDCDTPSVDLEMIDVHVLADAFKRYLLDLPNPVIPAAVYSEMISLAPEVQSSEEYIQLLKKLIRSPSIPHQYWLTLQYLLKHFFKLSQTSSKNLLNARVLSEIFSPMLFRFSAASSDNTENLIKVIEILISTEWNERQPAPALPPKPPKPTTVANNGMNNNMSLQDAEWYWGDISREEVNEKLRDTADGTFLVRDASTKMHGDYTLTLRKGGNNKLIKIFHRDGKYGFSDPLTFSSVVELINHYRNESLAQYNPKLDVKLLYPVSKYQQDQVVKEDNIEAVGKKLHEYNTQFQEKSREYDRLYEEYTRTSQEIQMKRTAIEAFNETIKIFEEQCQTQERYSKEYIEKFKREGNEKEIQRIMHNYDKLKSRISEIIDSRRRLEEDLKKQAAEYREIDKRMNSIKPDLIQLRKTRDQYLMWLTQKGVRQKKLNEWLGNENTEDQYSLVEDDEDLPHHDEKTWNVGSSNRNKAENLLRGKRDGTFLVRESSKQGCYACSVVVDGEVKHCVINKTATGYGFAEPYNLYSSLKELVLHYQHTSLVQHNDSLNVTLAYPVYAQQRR

Substance | tested on | assay | system | conditions | how to read | quantity | result
comA (Bacillus velezensis) | RapC (Bacillus velezensis) | BLI |  |  |  | Kd | 0.0135 µM
B1 (Cacna1c 1647-1777) | Jph2 1-440 S165Q (Mus musculus, UniProt Q9ET78) | ITC |  |  |  | Kd | 7.82 µM
GCVRLHESCLGQQVPCCDPAATCYCSGRGDNDLVCYCR (designed binder) | ITGAV/ITGB3 K562 cells | flow cytometry | designed binder, U87MG |  |  | Kd | 0.00089 µM
SCN2A fragment Q1913R (Homo sapiens) (sequence not shown) | CALM1 (Homo sapiens, UniProt P0DP23) | fluorescence titration |  | pH 7.4, 22 °C, together with: calcium |  | Kd | 0.006 µM
GSGAGKESYV | human MAGI1-2/6 PDZ construct (MBP fusion) | automated holdup | peptide, purified PDZ protein | concentration not given, unit not given | baseline: biotin control resin, higher = stronger binding | binding intensity | 0.0404
ENAH EVH1 domain (Homo sapiens) | RARA peptide (Homo sapiens) | BLI |  |  |  | Kd | > 150 µM
B2 (HCK 78-138) | PIK3R1 80-724 (Homo sapiens, UniProt P27986) | ITC |  |  |  | Kd | 16.8 ± 1.4 µM
USP14 |  | co-immunoprecipitation | human plasma | unit not given, together with: Band 3 peptide 1-56 bait | baseline: negative control | co-IP enrichment | 0
GSGAGSETKM | human MAGI1-2/6 PDZ construct (MBP fusion) | automated holdup | peptide, purified PDZ protein | concentration not given, unit not given | baseline: biotin control resin, higher = stronger binding | binding intensity | -0.0583
B3 (RAP1A) | PREX1 (Homo sapiens, UniProt Q8TCU6) | fluorescence titration |  | together with: mant-GTP 1 µM |  | Kd | 35 ± 3 µM
FNA / CGLSGLGVA-NH2 ([18F]FNA-labelled, C-amide) |  | gamma counting | peptide, healthy mice, brown adipose tissue | 60 min |  | tissue uptake | 0.21 %ID/g
NLLQWITQV | Jurkat T cells expressing 1G4 TCR | NFAT-eGFP reporter, flow cytometry | peptide | concentration not given, HLA-A*02:01 NY-ESO system |  | reporter activation | 83.1%
B4 (BIK) | BCL2L1 (Homo sapiens, UniProt Q07817-1) | FRET or BRET |  | not purified |  | Kd | 8 µM
RDETVKETKPLVHPNKNRTRGPRRKLPTRV (BSP1 547-576 (Saccharomyces cerevisiae); N-terminal FITC) | T1, CAP1/CAP2 heterodimer (Saccharomyces cerevisiae) | fluorescence polarisation | peptide | one-site fit |  | Kd | 0.045 µM
GGCKIFGSLAFLKCCYSL (HER2 hybrid peptide 369-377 (Homo sapiens, UniProt P04626); 99mTc-labelled) | ERBB2 (Homo sapiens, UniProt P04626) | radioligand binding | peptide, SKBR3 |  |  | Kd | < 0.05 µM
PALLD Ig3-Ig4 tandem del21 linker residues | ACTA1 F-actin (Oryctolagus cuniculus, UniProt P68135) | co-sedimentation |  |  |  | Kd | 15.7 ± 3.4 µM

Excerpt of the above:
Substance | tested on | assay | system | conditions | how to read | quantity | result
USP14 |  | co-immunoprecipitation | human plasma | unit not given, together with: Band 3 peptide 1-56 bait | baseline: negative control | co-IP enrichment | 0
